# Assay results from different studies.
# “And” joins repeats or separate records; there may be more than shown. ± marks the error that the study gave. No end group written: not given here.
# B1: coatomer subunit beta, human; sequence looked up; chain TAAENVCYTLINVPMDSEPPSEISLKNDLEKGDVKSKTEALKKVIIMILNGEKLPGLLMTIIRFVLPLQDHTIKKLLLVFWEIVPKTTPDGRLLHEMILVCDAYRKDLQHPNEFIRGSTLRFLCKLKEAELLEPLMPAIRACLEHRHSYVRRNAVLAIYTIYRNFEHLIPDAPELIHDFLVNEKDASCKRNAFMMLIHADQDRALDYLSTCIDQVQTFGDILQLVIVELIYKVCHANPSERARFIRCIYNLLQSSSPAVKYEAAGTLVTLSSAPTAIKAAAQCYIDLIIKESDNNVKLIVLDRLIELKEHPAHERVLQDLVMDILRVLSTPDLEVRKKTLQLALDLVSSRNVEELVIVLKKEVIKTNNVSEHEDTDKYRQLLVRTLHSCSVRFPDMAANVIPVLMEFLSDNNEAAAADVLEFVREAIQRFDNLRMLIVEKMLEVFHAIKSVKIYRGALWILGEYCSTKEDIQSVMTEIRRSLGEIPIVESEIKKEAGELKPEEEITVGPVQKLVTEMGTYATQSALSSSRPTKKEEDRPPLRGFLLDGDFFVAASLATTLTKIALRYVALVQEKKKQNSFVAEAMLLMATILHLGKSSLPKKPITDDDVDRISLCLKVLSECSPLMNDIFNKECRQSLSHMLSAKLEEEKLSQKKESEKRNVTVQPDDPISFMQLTAKNEMNCKEDQFQLSLLAAMGNTQRKEAADPLASKLNKVTQLTGFSDPVYAEAYVHVNQYDIVLDVLVVNQTSDTLQNCTLELATLGDLKLVEKPSPLTLAPHDFANIKANVKVASTENGIIFGNIVYDVSGAASDRNCVVLSDIHIDIMDYIQPATCTDAEFRQMWAEFEWENKVTVNTNMVDLNDYLQHILKSTNMKCLTPEKALSGYCGFMAANLYARSIFGEDALANVSIEKPIHQGPDAAVTGHIRIRAKSQGMALSLGDKINLSQKKTSI
# B2: bicyclic; chain AATCHCRRSCYSTEYSYGTCTVMGINHRFCCL (also: bicyclic or more (positions not given here))
# B3: human hnRNP R; sequence looked up; chain ANQVNGNAVQLKEEEEPMDTSSVTHTEHYKTLIEAGLPQKVAERLDEIFQTGLVAYVDLDERAIDALREFNEEGALSVLQQFKESDLSHVQNKSAFLCGVMKTYRQREKQGSKVQESTKGPDEAKIKALLERTGYTLDVTTGQRKYGGPPPDSVYSGVQPGIGTEVFVGKIPRDLYEDELVPLFEKAGPIWDLRLMMDPLSGQNRGYAFITFCGKEAAQEAVKLCDSYEIRPGKHLGVCISVANNRLFVGSIPKNKTKENILEEFSKVTEGLVDVILYHQPDDKKKNRGFCFLEYEDHKSAAQARRRLMSGKVKVWGNVVTVEWADPVEEPDPEVMAKVKVLFVRNLATTVTEEILEKSFSEFGKLERVKKLKDYAFVHFEDRGAAVKAMDEMNGKEIEGEEIEIVLAKPPDKKRKERQAARQASRSTAYEDYYYHPPPRMPPPIRGRGRGGGRGGYGYPPDYYGYEDYYDDYYGYDYHDYRGGYEDPYYGYDDGYAVRGRGGGRGGRGAPPPPRGRGAPPPRGRAGYSQRGAPLGPPRGSRGGRGGPAQQQRGRGSRGSRGNRGGNVGGKRKADGYNQPDSKRRQTNNQQNWGSQPIAQQPLQQGGDYSGNYGYNNDNQEFYQDTYGQQWK
Molecule,tested on,test,system,setting,scale,endpoint,value
coproporphyrin I,,,"human, plasma",baseline period,,diurnal variation (Cmean-Cmin)/Cmean,23.1 ± 3.7%
CTOP,,RP-HPLC,HALO Phenyl-hexyl column,"25 µM, acetic acid/acetonitrile, 10 min gradient",,retention time,5.25 min
protopine,,,placenta perfusion,360 min,reference: initial amount,amount in fetal perfusate,14 ± 3.7%
[177Lu]Lu-DOTA-TATE,,,mouse serum,"up to 24 h, 37 °C",,remaining compound,> 95%
Teicoplanin,,,QC solution,"7 days, 2–6 °C, low QC level",,recovery,98.7%
C-peptide,,LC-MS/MS,"pooled human serum, low level","24 h, 4 °C, stability before sample preparation",reference: untreated control,bias,4%
coproporphyrin III,,,"human, serum","oral, 20 mg ezetimibe, 5 h, geometric mean ezetimibe alone",reference: at 5 h over pre-dose,concentration ratio,1.23
regorafenib N-β-glucuronide,,,"wild-type mouse, plasma","oral, 10 mg/kg of regorafenib, single dose",,Tmax,1.6 ± 0.89 h
coproporphyrin I,,,"human, serum","oral, dose not given, 3 h, geometric mean, together with: ezetimibe plus rifampin",,serum concentration,3.25 nM
caspofungin,,,"adult ICU patients, mITT, serum","dose not given, day 30",,bilirubin,16.9 µmol/L
"B1 (coatomer subunit beta, human)",PP6C (human),"co-immunoprecipitation, IP-MS",CYB5R4 knockout cells,concentration not given,reference: CYB5R4 knockout over parental,log2 fold change,-0.82
B2,,sedimentation velocity ultracentrifugation,10 mM sodium phosphate,"160 µM, pH 7.4, 20 °C",,molecular mass,4.36 kDa
Polymyxin B,,LC-MS,"Sprague-Dawley rat, brain stem","intracerebroventricular, 0.75 mg/kg, 1 h",,concentration,1590 ng/mL and 1410 ng/mL and 970 ng/mL and 1310 ng/mL and 1050 ng/mL and 910 ng/mL
"FNA / CGLSGLGVA-NH2 ([18F]FNA-labelled, C-amide)",,gamma counting,"peptide, glioblastoma mice, Harderian glands",60 min,,tissue uptake,0.4 %ID/g
enterolactone sulfate,,,"human, plasma","dose not given, median",,plasma concentration,148 nM
B3 (human hnRNP R),PP6C (human),"co-immunoprecipitation, IP-MS",CYB5R4 knockout cells,concentration not given,reference: CYB5R4 knockout over parental,log2 fold change,-1.12

# For quick reference, copied from above:
Molecule,tested on,test,system,setting,scale,endpoint,value
B2,,sedimentation velocity ultracentrifugation,10 mM sodium phosphate,"160 µM, pH 7.4, 20 °C",,molecular mass,4.36 kDa
